Experimental data gathered from unrelated publications.
Numbered parts are unrelated; each lists some results of a single study. Several values in a cell are separate wells, animals, samples, runs or records.
UniProt Q9BRS2, sequence (whole entry, looked up): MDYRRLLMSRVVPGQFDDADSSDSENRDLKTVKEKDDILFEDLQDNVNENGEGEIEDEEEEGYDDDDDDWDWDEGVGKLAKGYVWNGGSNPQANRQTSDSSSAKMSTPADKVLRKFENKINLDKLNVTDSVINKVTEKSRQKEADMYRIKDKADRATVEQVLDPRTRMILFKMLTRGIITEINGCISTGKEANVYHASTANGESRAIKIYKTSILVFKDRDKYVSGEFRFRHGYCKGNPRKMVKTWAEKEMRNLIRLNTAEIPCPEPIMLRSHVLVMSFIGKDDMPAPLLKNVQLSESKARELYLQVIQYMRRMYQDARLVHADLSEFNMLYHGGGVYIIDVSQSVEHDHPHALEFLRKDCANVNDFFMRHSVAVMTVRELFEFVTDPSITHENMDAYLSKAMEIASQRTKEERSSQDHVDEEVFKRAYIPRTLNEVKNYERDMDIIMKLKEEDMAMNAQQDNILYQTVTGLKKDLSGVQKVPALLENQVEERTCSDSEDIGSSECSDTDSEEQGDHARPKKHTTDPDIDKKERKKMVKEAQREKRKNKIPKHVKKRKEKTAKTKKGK
UniProt P42336, sequence (whole entry, unmodified, looked up): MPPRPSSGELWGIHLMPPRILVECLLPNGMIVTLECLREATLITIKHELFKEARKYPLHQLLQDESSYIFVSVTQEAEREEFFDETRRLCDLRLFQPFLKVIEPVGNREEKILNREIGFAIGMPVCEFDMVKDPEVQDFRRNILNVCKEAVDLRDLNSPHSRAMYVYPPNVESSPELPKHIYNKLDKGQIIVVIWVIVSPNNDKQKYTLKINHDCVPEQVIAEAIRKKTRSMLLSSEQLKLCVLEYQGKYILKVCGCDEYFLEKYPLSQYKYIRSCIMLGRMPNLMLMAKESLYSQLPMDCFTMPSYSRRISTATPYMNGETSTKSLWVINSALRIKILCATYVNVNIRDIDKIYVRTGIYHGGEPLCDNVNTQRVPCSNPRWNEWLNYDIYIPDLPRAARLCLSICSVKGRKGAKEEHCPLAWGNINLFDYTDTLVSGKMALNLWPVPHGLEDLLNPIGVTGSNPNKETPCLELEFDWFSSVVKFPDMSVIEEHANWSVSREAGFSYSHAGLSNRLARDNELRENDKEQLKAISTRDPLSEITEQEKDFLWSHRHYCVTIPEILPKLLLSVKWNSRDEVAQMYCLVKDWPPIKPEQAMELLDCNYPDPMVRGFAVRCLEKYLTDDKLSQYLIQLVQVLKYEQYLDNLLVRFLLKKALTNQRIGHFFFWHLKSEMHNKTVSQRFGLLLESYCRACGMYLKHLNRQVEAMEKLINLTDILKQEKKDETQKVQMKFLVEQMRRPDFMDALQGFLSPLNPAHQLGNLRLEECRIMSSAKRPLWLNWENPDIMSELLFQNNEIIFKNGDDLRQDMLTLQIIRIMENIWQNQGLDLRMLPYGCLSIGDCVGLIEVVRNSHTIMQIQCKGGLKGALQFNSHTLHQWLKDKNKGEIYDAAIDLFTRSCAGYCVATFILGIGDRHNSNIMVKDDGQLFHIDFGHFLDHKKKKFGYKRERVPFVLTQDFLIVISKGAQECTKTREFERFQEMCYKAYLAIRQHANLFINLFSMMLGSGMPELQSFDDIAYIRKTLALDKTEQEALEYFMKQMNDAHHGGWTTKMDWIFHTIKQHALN
UniProt P28482, sequence (whole entry, looked up): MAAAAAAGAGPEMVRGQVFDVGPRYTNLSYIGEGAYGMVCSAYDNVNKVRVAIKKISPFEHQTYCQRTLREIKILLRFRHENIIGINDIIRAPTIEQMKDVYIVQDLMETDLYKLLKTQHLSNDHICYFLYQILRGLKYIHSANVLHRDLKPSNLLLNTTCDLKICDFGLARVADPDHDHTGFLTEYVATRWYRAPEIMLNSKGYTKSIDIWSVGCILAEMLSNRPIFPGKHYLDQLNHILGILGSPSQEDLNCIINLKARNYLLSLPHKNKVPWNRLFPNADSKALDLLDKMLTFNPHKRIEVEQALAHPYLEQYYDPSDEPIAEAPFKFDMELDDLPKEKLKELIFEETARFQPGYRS
UniProt Q04759, sequence (whole entry, looked up): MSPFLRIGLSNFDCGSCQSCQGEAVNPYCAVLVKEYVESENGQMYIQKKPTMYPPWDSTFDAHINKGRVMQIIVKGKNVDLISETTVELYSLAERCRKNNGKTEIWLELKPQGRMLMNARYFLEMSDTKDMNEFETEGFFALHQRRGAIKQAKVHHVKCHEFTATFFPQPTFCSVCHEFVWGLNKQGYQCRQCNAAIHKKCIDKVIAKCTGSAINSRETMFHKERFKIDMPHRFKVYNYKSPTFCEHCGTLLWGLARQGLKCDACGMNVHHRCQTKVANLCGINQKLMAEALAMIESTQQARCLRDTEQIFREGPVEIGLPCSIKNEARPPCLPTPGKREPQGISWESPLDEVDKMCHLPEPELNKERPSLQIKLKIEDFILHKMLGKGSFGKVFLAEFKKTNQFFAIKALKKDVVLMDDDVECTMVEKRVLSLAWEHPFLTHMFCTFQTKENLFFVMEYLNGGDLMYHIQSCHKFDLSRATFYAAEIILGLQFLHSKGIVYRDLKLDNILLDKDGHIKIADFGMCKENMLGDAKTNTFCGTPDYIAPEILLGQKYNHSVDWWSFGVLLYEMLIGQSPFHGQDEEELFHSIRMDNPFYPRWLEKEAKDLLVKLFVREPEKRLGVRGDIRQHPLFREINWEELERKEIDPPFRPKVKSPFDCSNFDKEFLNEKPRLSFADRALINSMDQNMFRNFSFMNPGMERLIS
UniProt P20794, sequence (whole entry, looked up): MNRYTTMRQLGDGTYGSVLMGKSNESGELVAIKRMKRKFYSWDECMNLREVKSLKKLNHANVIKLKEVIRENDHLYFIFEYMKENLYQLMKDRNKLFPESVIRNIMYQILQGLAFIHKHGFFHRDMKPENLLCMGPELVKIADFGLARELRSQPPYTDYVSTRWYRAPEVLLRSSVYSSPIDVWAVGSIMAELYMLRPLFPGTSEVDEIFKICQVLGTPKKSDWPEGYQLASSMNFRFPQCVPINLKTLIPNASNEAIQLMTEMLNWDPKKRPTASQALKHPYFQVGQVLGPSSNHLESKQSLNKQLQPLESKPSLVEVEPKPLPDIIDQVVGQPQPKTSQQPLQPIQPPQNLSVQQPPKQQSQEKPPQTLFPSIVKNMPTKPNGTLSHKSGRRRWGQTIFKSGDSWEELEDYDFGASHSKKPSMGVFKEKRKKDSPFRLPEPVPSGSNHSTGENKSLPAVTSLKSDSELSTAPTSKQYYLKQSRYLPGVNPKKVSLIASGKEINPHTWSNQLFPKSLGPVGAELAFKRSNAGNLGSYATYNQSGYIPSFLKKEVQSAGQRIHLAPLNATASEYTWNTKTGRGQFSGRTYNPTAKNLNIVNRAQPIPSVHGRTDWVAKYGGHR
UniProt P41743, sequence (whole entry, looked up): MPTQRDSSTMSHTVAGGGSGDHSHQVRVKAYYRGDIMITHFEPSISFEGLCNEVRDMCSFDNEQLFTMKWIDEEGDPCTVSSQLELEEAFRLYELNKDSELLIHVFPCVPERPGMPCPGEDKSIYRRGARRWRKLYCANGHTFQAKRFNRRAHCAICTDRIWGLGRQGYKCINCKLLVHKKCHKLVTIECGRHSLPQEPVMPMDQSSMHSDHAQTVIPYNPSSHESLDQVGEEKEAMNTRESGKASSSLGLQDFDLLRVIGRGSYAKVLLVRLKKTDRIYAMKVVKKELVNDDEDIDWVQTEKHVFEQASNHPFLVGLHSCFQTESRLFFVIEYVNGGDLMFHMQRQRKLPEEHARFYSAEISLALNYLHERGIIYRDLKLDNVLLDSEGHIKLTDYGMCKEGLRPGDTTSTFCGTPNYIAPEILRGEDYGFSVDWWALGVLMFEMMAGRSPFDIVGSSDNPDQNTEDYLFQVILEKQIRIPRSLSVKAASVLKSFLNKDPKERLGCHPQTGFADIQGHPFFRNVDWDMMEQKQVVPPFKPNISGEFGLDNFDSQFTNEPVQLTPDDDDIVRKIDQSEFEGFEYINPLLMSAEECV
UniProt P37023, sequence (whole entry, looked up): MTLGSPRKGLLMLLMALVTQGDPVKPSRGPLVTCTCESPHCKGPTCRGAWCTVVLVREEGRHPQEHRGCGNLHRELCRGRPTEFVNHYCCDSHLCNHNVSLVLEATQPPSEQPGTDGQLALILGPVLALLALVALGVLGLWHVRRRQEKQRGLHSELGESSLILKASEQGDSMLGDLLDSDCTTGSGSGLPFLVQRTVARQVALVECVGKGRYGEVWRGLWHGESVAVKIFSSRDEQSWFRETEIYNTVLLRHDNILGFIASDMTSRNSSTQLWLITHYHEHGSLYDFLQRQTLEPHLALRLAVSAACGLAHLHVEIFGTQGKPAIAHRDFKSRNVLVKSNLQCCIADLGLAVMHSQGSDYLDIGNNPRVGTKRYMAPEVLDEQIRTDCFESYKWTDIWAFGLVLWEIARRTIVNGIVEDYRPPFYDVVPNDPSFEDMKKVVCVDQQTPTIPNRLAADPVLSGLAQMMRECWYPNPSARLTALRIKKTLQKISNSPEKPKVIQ

Block 1 — species: mouse; sample: microsomes or S9; tested at: 2 µM; time: 0.5 h
`COCCN(Cc1ccn(C)c(=O)c1)Cc1cccs1` gave a remaining compound of 0.0465%.
`COCCOCC(OC(=O)c1ccc(NC(N)=O)cc1)C(C)(C)C` (centres unmarked) gave a remaining compound of 11.4%.
With `COc1ccc(Cn2c(=O)[nH]c(-c3ccc(F)cc3)c(-c3ccc(F)cc3)c2=O)cc1` the remaining compound was 88.6%.
`CC(=O)c1ccc(/C=C/c2ccc(C(C)(C)C)cc2)n1C` has a remaining compound of 83%.

Block 2 — cell line: mouse MPNST tumor cells; technique: high-content immunofluorescence imaging; measured: nuclear SOX9; tested at: 10 µM; time: 12 h; setting: mean of 2 replicates; reference: DMSO control; direction: higher = more nuclear SOX9
`O=C(C1CCCCC1)N1CC(=O)N2CCc3ccccc3C2C1` (centres unmarked) — result for “nuclear SOX9 intensity”: 97.9 % of DMSO and 97.4 % of DMSO.
`CCOC(=O)c1cc2ccc(O)cc2oc1=O`: “nuclear SOX9 intensity” 94.1 % of DMSO.
For `CC1Cc2ccccc2N1NC(=O)c1ccc(Cl)c(S(N)(=O)=O)c1` (centres unmarked), “nuclear SOX9 intensity” read 127 % of DMSO.
For `CNC[C@H](O)c1cccc(O)c1`, “nuclear SOX9 intensity” read 99.5 % of DMSO.

Block 3 — observed: cell-free assay; technique: competition with immobilised ligand; tested at: 1 µM
SMILES: O=C(NS(=O)(=O)c1ccc(NCC2CCOCC2)c([N+](=O)[O-])c1)c1ccc(N2CCN(Cc3ccc(C(F)(F)F)cc3-c3ccc(Cl)cc3)CC2)cc1Oc1cnc2[nH]ccc2c1
For Protein kinase C theta type (PRKCQ, Homo sapiens, UniProt Q04759): remaining binding read 100%.
The remaining binding was 100% (Serine/threonine-protein kinase RIO1 (RIOK1, Homo sapiens, UniProt Q9BRS2)).
It gave 100% for remaining binding (Phosphatidylinositol 4-phosphate 5-kinase type-1 gamma (PIP5K1C, Homo sapiens, UniProt O60331)).
ALK tyrosine kinase receptor (ALK, Homo sapiens, UniProt Q9UM73, L1196M) — remaining binding: 100%.
Inhibitor of nuclear factor kappa-B kinase subunit beta (IKBKB, Homo sapiens, UniProt O14920) — remaining binding: 74%.
It gave 77% for remaining binding (Activin receptor type-1-like (ACVRL1, Homo sapiens, UniProt P37023)).
The remaining binding was 98% (NUAK family SNF1-like kinase 1 (NUAK1, Homo sapiens, UniProt O60285)).
Protein kinase C iota type (PRKCI, Homo sapiens, UniProt P41743) — remaining binding: 100%.
It gave 51% for remaining binding (Phosphatidylinositol 4,5-bisphosphate 3-kinase catalytic subunit alpha isoform (PIK3CA, Homo sapiens, UniProt P42336, M1043I)).
It gave 97% for remaining binding (Serine/threonine-protein kinase MAK (MAK, Homo sapiens, UniProt P20794)).
For Mitogen-activated protein kinase 1 (MAPK1, Homo sapiens, UniProt P28482): remaining binding read 87%.

Block 4 — mode: antagonist
Target: Beta-1 adrenergic receptor (ADRB1, Homo sapiens, UniProt P08588)
UniProt P08588, sequence (whole entry, looked up): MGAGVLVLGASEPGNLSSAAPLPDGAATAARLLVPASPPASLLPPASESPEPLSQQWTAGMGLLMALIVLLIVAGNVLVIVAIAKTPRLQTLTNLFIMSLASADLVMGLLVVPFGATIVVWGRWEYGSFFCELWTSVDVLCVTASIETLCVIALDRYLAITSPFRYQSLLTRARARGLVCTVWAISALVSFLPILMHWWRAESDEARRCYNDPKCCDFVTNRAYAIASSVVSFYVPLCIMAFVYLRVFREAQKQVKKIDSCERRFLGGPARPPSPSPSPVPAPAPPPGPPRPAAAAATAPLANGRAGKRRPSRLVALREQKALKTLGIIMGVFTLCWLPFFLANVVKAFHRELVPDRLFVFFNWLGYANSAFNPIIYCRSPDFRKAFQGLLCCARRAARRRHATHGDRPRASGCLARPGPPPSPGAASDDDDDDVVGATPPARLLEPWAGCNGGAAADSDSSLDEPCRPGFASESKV
`COc1ccc(CN2C(=O)COC[C@@H]2[C@H](O)c2ccc(NC(=O)Cc3ccccc3)cc2)cc1` has an IC50 of at least 100 µM.
With `O=C(C1CCOCC1)N1CCCn2nc(C(O)c3ccccc3)cc2C1` (centres unmarked) the IC50 was at least 100 µM.
For `CCCCCCCCN[C@H](C)[C@@H](O)c1ccc(SC(C)C)cc1`, the IC50 was 35.5 µM.

Other studies, line by line
With `CNC(=O)c1cc(Oc2ccc(NC(=O)Nc3ccc(Cl)c(C(F)(F)F)c3)cc2)ccn1` the remaining signal was 85.6% (Myosin-IIIb (MYO3B, Homo sapiens, UniProt Q8WXR4); cell-free assay; 0.5 µM).

A few entries again (block 4):
`COc1ccc(CN2C(=O)COC[C@@H]2[C@H](O)c2ccc(NC(=O)Cc3ccccc3)cc2)cc1` has an IC50 of at least 100 µM.
With `O=C(C1CCOCC1)N1CCCn2nc(C(O)c3ccccc3)cc2C1` (centres unmarked) the IC50 was at least 100 µM.
For `CCCCCCCCN[C@H](C)[C@@H](O)c1ccc(SC(C)C)cc1`, the IC50 was 35.5 µM.
